Measurements of several laboratories.
Every numbered part comes from another study and shows a few of its results, in no order. Positions count from the first letter of the parent shown.

Set 1
Target: Histone acetyltransferase KAT6A, both winged helices, GST fusion (KAT6A, Homo sapiens, UniProt Q92794, residues 1-181)
Technique: protein binding microarray
Form: double-stranded DNA, one strand shown
Medium: in vitro
Concentration: not given
Setting: 8-mer, flanks averaged, mean of 2 arrays, mostly near background
Baseline: not given
Direction: higher = stronger binding
Construct (chain): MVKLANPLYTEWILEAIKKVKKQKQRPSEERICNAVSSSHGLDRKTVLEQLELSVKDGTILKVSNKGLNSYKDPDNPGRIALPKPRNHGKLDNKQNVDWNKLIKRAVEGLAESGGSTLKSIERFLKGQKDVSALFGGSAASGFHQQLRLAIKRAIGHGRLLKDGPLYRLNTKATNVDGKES
Sequence | E-score
ATAAGAAG | -0.0801
CCTCGAAG | -0.13
GAAATACC | -0.0403
AAAAGGCC | 0.0942
ATGTTGCA | -0.172
GTAGCCAA | -0.108
ATCCGTAC | 0.228
CCAGCGGA | 0.163
ATACCAGG | -0.129
GGAATTCC | -0.0243
CACTTCCC | -0.0815
ACAGGGTG | -0.186
GTACATGA | -0.0447
CAGGCGAA | -0.146
ATACTTAG | -0.125
GTTTAAGA | 0.00986
ATGGGACG | -0.084
CAGGTGAA | -0.207

Set 2
Target: CCND2, cyclin fold, Cln2 fusion (human)
Technique: yeast growth competition, sequencing
Medium: yeast
Setting: weak parent motif
Baseline: not given
Direction: higher = stronger binding
Starting sequence: CDKN1B docking peptide (human); PSACRNLFGPVDH
Change | normalised enrichment score
G9W | 0.214
R5K | -0.0724
V11N | 0.415
S2K | 0.234
A3G | -0.155
N6L | 0.424
P1H | 0.251
L7G | 0.0519
P1A | 0.199
V11R | -0.0291
V11I | -0.115
C4K | -0.0577
L7N | -0.123
P1T | 0.46
L7V | 0.206
A3M | 0.26
H13I | -0.0577
A3Y | -0.0948
N6S | 0.325
A3V | 0.069
P10T | 0.121
P1Q | 0.409
N6E | 0.222
F8Q | 0.34
D12Y | 0.226

Set 3
Target: Prothrombin, mature alpha-thrombin (F2, Homo sapiens, UniProt P00734)
Technique: aptamer microarray, sandwich
Form: DNA with 2'F-ANA
Medium: in vitro
Concentration: 200 nM
Setting: whole 15-mer aptamer, many near background
With: Cy3 exosite-II aptamer, 400 nM
Direction: higher = stronger binding
Sequence: GGTTGGTGTGGTTGG
Modification | mean fluorescence intensity [a.u.]
2'F-ANA at 1 2 3 7 8 15 | 340
2'F-ANA at 1 3 4 6 7 11 12 | 299
2'F-ANA at 4 6 8 9 10 11 | 81.3
2'F-ANA at 1 2 5 6 7 9 10 13 14 | 50.2
2'F-ANA at 3 5 9 11 13 14 15 | 74.4
2'F-ANA at 1 7 8 9 | 247
2'F-ANA at 4 8 9 10 11 14 15 | 83.9
2'F-ANA at 4 5 6 8 10 11 13 15 | 58.5
2'F-ANA at 3 5 8 9 14 15 | 63.5
2'F-ANA at 1 4 6 7 9 12 13 | 221
2'F-ANA at 3 7 9 10 14 15 | 432
2'F-ANA at 4 5 9 10 13 | 45.1
2'F-ANA at 2 4 7 8 9 10 11 12 14 15 | 123
2'F-ANA at 3 5 6 8 9 10 13 14 15 | 49.9
2'F-ANA at 1 2 4 5 6 8 12 13 | 73.8
2'F-ANA at 2 3 5 7 9 11 13 14 15 | 57.2
2'F-ANA at 2 6 8 9 11 12 13 14 | 134
2'F-ANA at 1 2 10 12 14 | 107
2'F-ANA at 1 7 8 10 13 14 15 | 54.2
2'F-ANA at 2 3 4 6 7 8 9 10 11 13 14 15 | 246
2'F-ANA at 1 2 3 4 8 9 11 12 | 316
2'F-ANA at 1 2 4 5 12 13 14 15 | 45
2'F-ANA at 4 8 9 10 11 12 14 | 57.2
2'F-ANA at 1 2 5 9 13 14 15 | 48.7

Set 4
Target: Fragile X messenger ribonucleoprotein 1, C-terminal low-complexity region (Fmr1, Mus musculus, UniProt P35922)
Technique: RNA Bind-n-Seq
Form: RNA
Medium: in vitro
Concentration: 200 nM
Setting: whole 134-nt RNA, ends assumed
With: 150 mM LiCl
Baseline: input library
Direction: higher = stronger binding
Each molecule: 7-deaza-guanosine replaces G
Shared flanks, not repeated: GGGAGUUCUACAGUCCGACGAUC … UGGAAUUCUCGGGUGUCAAGG
Sequence | log2 enrichment
UGGGAGGUGGAUUUUGUUUCUUUUUUUAGCUCAUUUCCAGGGGUGGGAAUUUUUUUUUAAUAUGUGUCAUGAAUAAAGUUGUUUUUGAAA | 0.739
ACCAUGCAGGUGGGCAUCUUUGGGAAGUGGUGCAAGGGGGGGAUAGGGAGGGGGGUAACACUUUGGGAACAGGUGGUCCCAGGUCGUUUC | 1.26
UGGCCCUGGUGGCAUGCGGGGAGGAAGAGGUGGCCUCAUGGAUCGUGGUGGUCCCGGUGGAAUGUUCAGAGGUGGCCGUGGAGGAGACAG | -0.366
GAGCUGGAAGCUAUCAAAGCUCGAGUCAGGGAGAUGGAGGAAGAAGCUGAGAAGCUAAAGGAGCUACAGAACGAGGUAGAGAAGCAGAUG | -0.205
AGUCCUGUGCUACACAUCGUAUGUACCGAAUCGGGAAAAGGGGAAAAGGGGAAAAGGAAAGUAUUAUGUUACGCCGUUCGGAUCUGCACU | -0.746
AGUCCUGUGCUACACAUCGUAUGUACCGAAUCGGGGUGGGGUUUUUUUGGGGAGGGGAAAGUAUUAUGUUACGCCGUUCGGAUCUGCACU | 0.327
GUCCUGUGCUACACAUCGUAUGUACCGAAUCGGGUUUGGGAAAAAGGGUUUUUUUGGGAAAGUAUUAUGUUACGCCGUUCGGAUCUGCAC | -1.67
UUCCGCCUCUUUCCGGAGUACAAGAACAACAAACUUUUCCUGACCGGGGAGAGCUAUGCUGGCAUCUACAUCCCCACCCUGGCCGUGCUG | 1.54
CAAGUCCUGUGCUACACAUCGUAUGUACCGAAUCGGGGAAGGGAAGGGGAAGGGGAAAGUAUUAUGUUACGCCGUUCGGAUCUGCACUUC | -0.0733
UGGGAGGUGGUUUUUGUUUAUUUUUUUAGCUCAUUUCCAGGGGUGGGAAUUUUUUUUUAAUAUGUGUCAUGAAUAAAGUUGUUUUUGAAA | 0.266
CCUGUGCUACACAUCGUAUGUACCGAAUCGGGGUGGGGUUUUUUUGGGGUUUUUUUGGGGAAAGUAUUAUGUUACGCCGUUCGGAUCUGC | -0.331

Set 5
Target: ABI1, truncated, D143A, DHFR fusion (Arabidopsis thaliana)
Technique: DHFR PCA, deep sequencing
Medium: yeast
Setting: methotrexate growth selection, single substitutions
With: (+)-ABA 200 µM
Baseline: wild-type fitted maximum
Direction: higher = stronger binding
Starting sequence: PYL1, truncated, DHFR fusion (Arabidopsis thaliana); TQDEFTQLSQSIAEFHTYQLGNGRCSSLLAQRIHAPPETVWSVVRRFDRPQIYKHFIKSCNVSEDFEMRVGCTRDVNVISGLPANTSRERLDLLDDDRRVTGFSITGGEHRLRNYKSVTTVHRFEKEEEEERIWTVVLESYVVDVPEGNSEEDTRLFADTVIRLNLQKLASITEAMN; partner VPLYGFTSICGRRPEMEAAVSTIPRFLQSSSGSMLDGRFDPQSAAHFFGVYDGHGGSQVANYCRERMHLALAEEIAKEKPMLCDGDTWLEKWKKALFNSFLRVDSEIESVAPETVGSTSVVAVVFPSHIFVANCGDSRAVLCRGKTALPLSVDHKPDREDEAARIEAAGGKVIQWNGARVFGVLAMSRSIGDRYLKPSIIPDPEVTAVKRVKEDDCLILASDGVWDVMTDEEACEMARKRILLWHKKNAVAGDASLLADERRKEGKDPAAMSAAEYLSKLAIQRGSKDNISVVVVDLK
Change | relative binding score [%]
G108E | 30.4
R113M | 107
G107C | 62.8
Y53R | 66.6
V145N | 60.5
S171M | 95.5
R24I | 94.3
N61P | 58.4
P50M | 0.185
T86R | 95.6
T39D | 94.1
G71M | 53.3
I33P | 0.29
L91N | -8.81
C60A | 85.3
F124D | 107
S26I | 74.8

Other studies, line by line
Substance | target | assay | test system | setting | scale | endpoint | value
PhoQ, residues 284 288 289 292 302 303 AGHLVA | PhoP, residues 12 14 15 18 19 LHSVQ (Escherichia coli, UniProt P23836) | Sort-seq, item: YFP reporter | E. coli | PhoQ-PhoP variant library, with: 10 µM Mg2+ | baseline: high Mg2+ state, higher = stronger signaling | fold induction | 2.38

For quick reference, copied from above (set 5):
Change | relative binding score [%]
Y53R | 66.6
V145N | 60.5
S171M | 95.5
R24I | 94.3
N61P | 58.4
P50M | 0.185
T86R | 95.6
T39D | 94.1
G71M | 53.3
I33P | 0.29
L91N | -8.81
